# Published values pooled from the literature.
# Parts stem from different laboratories: compare values within a part only. Substitutions count along the parent as printed.

# Series 1
# Target: Interferon regulatory factor 5, full length, phosphomimetic (IRF5, Homo sapiens, UniProt Q13568-2, residues 1-514, K96S/S451D/S453D/S456D/S462D)
# Method: protein-binding microarray
# Molecule type: double-stranded DNA, one strand shown
# Matrix: in vitro
# Tested at: 250 nM
# Notes: 60-bp whole probe
# With: salmon DNA 0.4 mg/ml
# Reference: random background probes
# Direction: higher = stronger binding
# Shared flanks, not repeated: GCCTAGCAC … GTCTTGATTCGCTTGACGCTGCTG
Oligonucleotide,log fluorescence [z-score]
GACGGACTGCTACTACTGACGTGCTAG,-0.415
GACGGACTGCTTCCCCTGACGTGCTAG,-0.505
TACAAATCCAGCCCTACAGAGTGCTAG,-0.097
GACGGTATCGGTTTCGGGAAGTGCTAG,8.84
TTAGATTCCAATTTCGATTAGTGCTAG,7.13
GACGGGATCCTTTTCCTGACGTGCTAG,-0.121
GACGGTATCGAATATCGGGACGTGCTA,2
GAAGGTTTCCTTTCCCTGACGTGCTAG,1.55
AAGTTTATACCTTAGGTTTTGTGCTAG,0.112
TCAACTCTTGCTTTTTAACTGTGCTAG,0.55
GACGAACTGGGAACTGGAGACGTGCTA,-0.332
GACGGTATCGACACTGCGGACGTGCTA,1.56

# Series 2
# Partner: H2BC9 (Homo sapiens, UniProt Q93079)
# Method: cross-linking MS
# Notes: hits only
Molecule,interaction screen
"HMGB2 (Homo sapiens, UniProt P26583)",cross-linked
"HMGN1 (Homo sapiens, UniProt P05114)",cross-linked
"H2BC5 (Homo sapiens, UniProt P58876)",cross-linked
"H2AC7 (Homo sapiens, UniProt P20671)",cross-linked
"HMGB1 (Homo sapiens, UniProt P09429)",cross-linked

# Series 3
# Target: CCNF, cyclin fold, Cln2 fusion (human)
# Method: yeast growth competition, sequencing
# Matrix: yeast
# Notes: strong parent motif
# Reference: not given
# Direction: higher = stronger binding
# Parent: BRCA2 docking peptide (human); PSIKRNLLNEFDR; partner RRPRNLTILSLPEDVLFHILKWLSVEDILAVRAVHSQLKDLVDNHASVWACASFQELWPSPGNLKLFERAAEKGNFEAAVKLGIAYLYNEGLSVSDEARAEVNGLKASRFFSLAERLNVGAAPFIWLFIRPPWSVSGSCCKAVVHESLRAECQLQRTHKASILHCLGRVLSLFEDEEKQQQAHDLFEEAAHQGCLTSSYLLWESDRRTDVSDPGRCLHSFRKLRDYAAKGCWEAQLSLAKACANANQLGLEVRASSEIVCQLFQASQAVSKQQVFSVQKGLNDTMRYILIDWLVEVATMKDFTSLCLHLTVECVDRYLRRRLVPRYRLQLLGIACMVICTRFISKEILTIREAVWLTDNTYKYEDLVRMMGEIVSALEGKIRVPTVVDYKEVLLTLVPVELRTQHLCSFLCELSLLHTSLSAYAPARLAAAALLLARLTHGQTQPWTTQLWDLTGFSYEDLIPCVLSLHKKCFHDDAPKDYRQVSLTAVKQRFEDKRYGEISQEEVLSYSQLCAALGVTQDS
Substitution,normalised enrichment score
K4F,1.52
S2H,2.64
N9P,6.41
R13S,3.72
P1V,4.16
R5K F11L,0.138
R5F,0.585
F11W,0.769
S2G,1.62
D12E,4.03
R5T,-0.151
D12N,5

# Further values, each from its own experiment
Molecule,target,assay,system,setting,scale,quantity,result
"PhoQ, residues 284 288 289 292 302 303 DDMDFR","PhoP, residues 12 14 15 18 19 GQALL (Escherichia coli, UniProt P23836)","Sort-seq, measured: YFP reporter",E. coli,"PhoQ-PhoP variant library, with: 10 µM Mg2+","reference: high Mg2+ state, higher = stronger signaling",fold induction,1.35

# For quick reference, copied from above (series 3):
Substitution,normalised enrichment score
R13S,3.72
R5T,-0.151
K4F,1.52
S2G,1.62
N9P,6.41
